Measurements from different studies.
A part holds a random share of what one study measured.

Block 1
Target: Sal-like protein 4, full length isoform A (SALL4, Homo sapiens, UniProt Q9UJQ4, residues 1-1053)
Chain of UniProt Q9UJQ4 (whole entry, looked up): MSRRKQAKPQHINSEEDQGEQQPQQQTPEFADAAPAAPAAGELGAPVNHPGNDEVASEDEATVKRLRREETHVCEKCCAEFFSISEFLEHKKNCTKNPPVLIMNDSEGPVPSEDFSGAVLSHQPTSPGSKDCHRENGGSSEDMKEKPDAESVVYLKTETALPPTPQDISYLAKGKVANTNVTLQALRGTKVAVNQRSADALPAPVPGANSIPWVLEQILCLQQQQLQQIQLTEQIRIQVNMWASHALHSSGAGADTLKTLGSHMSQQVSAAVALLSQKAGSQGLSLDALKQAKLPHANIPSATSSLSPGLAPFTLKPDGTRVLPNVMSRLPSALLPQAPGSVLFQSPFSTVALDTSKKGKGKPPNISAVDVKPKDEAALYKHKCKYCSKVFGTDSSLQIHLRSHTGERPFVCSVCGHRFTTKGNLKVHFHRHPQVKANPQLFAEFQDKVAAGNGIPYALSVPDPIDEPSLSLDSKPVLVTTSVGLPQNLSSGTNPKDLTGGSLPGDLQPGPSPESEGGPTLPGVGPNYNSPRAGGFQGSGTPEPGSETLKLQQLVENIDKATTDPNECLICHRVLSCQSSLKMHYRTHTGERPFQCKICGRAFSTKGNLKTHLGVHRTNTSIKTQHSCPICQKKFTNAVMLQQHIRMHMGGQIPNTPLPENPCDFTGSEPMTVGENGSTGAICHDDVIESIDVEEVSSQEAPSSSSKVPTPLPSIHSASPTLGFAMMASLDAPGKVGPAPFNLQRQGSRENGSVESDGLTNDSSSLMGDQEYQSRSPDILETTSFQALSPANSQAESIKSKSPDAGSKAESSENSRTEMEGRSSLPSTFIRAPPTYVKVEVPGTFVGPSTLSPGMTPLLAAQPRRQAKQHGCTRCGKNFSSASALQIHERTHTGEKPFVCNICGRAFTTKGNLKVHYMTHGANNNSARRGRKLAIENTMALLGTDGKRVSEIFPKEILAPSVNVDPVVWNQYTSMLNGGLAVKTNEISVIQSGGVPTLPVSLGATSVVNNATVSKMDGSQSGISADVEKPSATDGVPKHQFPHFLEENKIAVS
Method: universal PBM
Molecule type: double-stranded DNA, one strand shown
Sample: in vitro
Concentration: 600 nM
Setting: 8-mer, flanks averaged, mean of replicates
Direction: higher = stronger binding
| Strand | E-score |
| --- | --- |
| AAGTTCTG | 0.13 |
| ATTAAGTC | 0.299 |
| GCTATGGA | 0.0769 |
| ACAAGACT | 0.111 |
| GAGGAATC | -0.14 |
| ACATCAAG | 0.201 |
| AGCTACCC | -0.0852 |

Block 2
Target: RING finger protein unkempt homolog, zinc fingers 1-6, SBP tag (UNK, Homo sapiens, UniProt Q9C0B0, residues 30-357)
Chain of UniProt Q9C0B0 (30-357, looked up): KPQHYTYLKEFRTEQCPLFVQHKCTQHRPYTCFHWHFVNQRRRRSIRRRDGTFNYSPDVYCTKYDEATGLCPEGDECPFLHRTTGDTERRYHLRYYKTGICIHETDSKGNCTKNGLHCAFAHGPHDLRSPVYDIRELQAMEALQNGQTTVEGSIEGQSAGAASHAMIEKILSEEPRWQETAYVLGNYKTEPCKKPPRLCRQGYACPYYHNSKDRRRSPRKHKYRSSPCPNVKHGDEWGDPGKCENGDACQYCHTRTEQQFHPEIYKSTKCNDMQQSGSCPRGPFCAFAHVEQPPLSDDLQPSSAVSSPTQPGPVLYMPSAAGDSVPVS
Method: RNA Bind-n-Seq
Molecule type: RNA
Sample: in vitro
Concentration: 100 nM
Setting: RNA with constant flanks, vertebrate orthologous sites, ends assumed
Baseline: input RNA pool
Direction: higher = stronger binding
All sequences stand within: GGGAGUUCUACAGUCCGACGAUC … CAACAGAGGAUUGAGCAUCA
| Strand | bound/input enrichment [ratio] |
| --- | --- |
| UUACAGUCAUUGAUGGACUCUAUUUUUUUAUUAUUACUUGGACCUUGGUCGUUUUUAUACUAGCAAAACGUCUUGUUUUAAUUUGUGUUUUUUGGGGGGGAGGGAGUGAACUUGCUGAUU | 2.02 |
| GAUUUGGACCUAGGAGCCGAACCAGAGAGCUAGCAAAAGUAAAGCAGACGUGUAAAAGUAGAGCCCUGUGCAGCUGCCCGGCAACAGUACUACCGCUAGCAGCGGUGUGAAGGUAUUUAU | 0.462 |
| CCCUCUGAACCCCAUUUCUUCUGUUUCAUAGUGCAGAAGUAUAUUUUUCAACUACAUUAUUAGUGGACUUGUUUUAAUUUUAGGGAAACUUUCAGUACAGAUACUGUGAGCUUACAUGGA | 2.21 |
| GUGUCUUGGUUUGGGGUAGAGGGGAGGGAGGGGCAGGACUGUGGAAUCUCUAGUGGGUAUGGGUAUAUAUAGGGUGCACAGUUCUAAGUGGGCCUUUAUGUUAAAAACCUCUGGGGGUGU | 0.511 |
| ACGUGUACAUUGUGGCAUAUAGUCAACCUGGAAGUAGACCAGCUCUGCUGAUUUGAAAUUUAGAUUUUUUAAUUAUGUACUGGGGACAGGUUUUUGUCGCUUUACAUUGCUUCCUAGUUU | 3.29 |
| GCAAUGAAAAAGCAGCCCUUCUCCCAGCCCCCUUUUCACUAGGAGAUACAAACGUUACCAUAGAAGAGCAAUUAAACUCAAUAAAUUUAUCUUUUCAGGAUGAUCCAGACUCCAGUACCA | 1.64 |

Block 3
Target: Interferon regulatory factor 5, full length, phosphomimetic (IRF5, Homo sapiens, UniProt Q13568-2, residues 1-514, K96S/S451D/S453D/S456D/S462D)
Method: protein-binding microarray
Molecule type: double-stranded DNA, one strand shown
Sample: in vitro
Concentration: 250 nM
Setting: 60-bp whole probe
With: salmon DNA 0.4 mg/ml
Baseline: random background probes
Direction: higher = stronger binding
All sequences stand within: GCCTAGCAC … GTCTTGATTCGCTTGACGCTGCTG
| Strand | log fluorescence [z-score] |
| --- | --- |
| GACGAACTGCTACTGCTGACGTGCTAG | -0.202 |
| TTAGATTCCAGTTTCGATTTGTGCTAG | 9.41 |
| GACGATTTCGGGTATCGGGACGTGCTA | 4.53 |
| TCAACTTTCTCTGCTCTTTTCGTGCTA | 2.62 |
| CATCATTGCCTATTTTTCACCGTGCTA | 0.806 |
| GTCATTTTCTCTTATTCTAAGTGCTAG | 2.6 |
| TTAGGTCTCATACTGCTTTAGTGCTAG | 0.0124 |
| TTAGAACTGGGGACTGGACTAGTGCTA | -0.249 |
| TTAGGACTGGGGTATAGGTTAGTGCTA | 0.00947 |

Further values, each from its own experiment
| Molecule | target | test | system | setting | how to read | measurement | value |
| --- | --- | --- | --- | --- | --- | --- | --- |
| PhoQ, residues 284 288 289 292 302 303 NLALSC | PhoP, residues 12 14 15 18 19 NQCAL (Escherichia coli, UniProt P23836) | Sort-seq, item: YFP reporter | E. coli | PhoQ-PhoP variant library, with: 10 µM Mg2+ | baseline: high Mg2+ state, higher = stronger signaling | fold induction | 0.94 |

Repeated from above (block 3):
| Strand | log fluorescence [z-score] |
| --- | --- |
| TTAGGTCTCATACTGCTTTAGTGCTAG | 0.0124 |
| TTAGATTCCAGTTTCGATTTGTGCTAG | 9.41 |
| GACGAACTGCTACTGCTGACGTGCTAG | -0.202 |
